# Published values gathered from unrelated publications.
# Parts stem from different laboratories: compare values within a part only.

# Sample 1 — technique: RNA Bind-n-Seq; form: RNA; matrix: in vitro; concentration: 365 nM; relative to: no-protein control; reading: higher = stronger binding
# Target: RNA binding protein fox-1 homolog 2, RRM domain, GST-SBP tag (RBFOX2, Homo sapiens, UniProt O43251-10, residues 100-194)
# Notes: natural RNA segment, single round, ends assumed
# Constant ends, left off below: GGGAGUUCUACAGUCCGACGAUC … UGGAAUUCUCGGGUGCCAA
# Residues (chain): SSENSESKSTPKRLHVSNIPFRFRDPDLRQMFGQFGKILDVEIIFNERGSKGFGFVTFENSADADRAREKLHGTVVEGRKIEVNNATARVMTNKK
Sequence,RBNS enrichment (R)
GAGCUACAAUCAUGGCUUUUCAUGUUACUUACCAAGUGGUGUUUCUGGUUAGGAAUCACAGCUGUAAAAUUGAUUUCAGUUCAUCACACUUCUUCAUGAUGUUGCCCCUA,0.384
AAUGGCAGUACUUUAGGACACACACAAACACACAGACACACCUUUUGAUAUGUAAGCUUGACCUAAAGUCAAAGGACCUGUGUAGCAUUUCAGAUUGAGCACUUCACUAU,2.02
GUGGACCCUGGUUGUAAAGAGUAAAUUGUAUCUUAGGAAACCAGUGUCACCUUUUUUUCACCUUUUAAUUUUAUAUUAUUUGCGUCAUACAUUUCCUGUAACGGAAGUGU,0.402
GUUCAAAACUAAUUGAUAAUUGAAGUAUCAAGAUACGUAGAACACCUCAGAGAUUUUUCUUCAGGAACUUCCACAAACUUUGAAUCCUUGUAUCUUUAUUUGGUAUUCAU,0.553
UGAACAAGUCUGUUCAUGGCAAACGUGGCUCGAGCCCACCAGACACCAGCGCAGAGCGGGGGCAGCCUGCCCCGCUGUAGCACAGGAGCAAUGGUGUAGCGUCUUCCAAG,0.239
GUGAAAUGAUAAGGGCAUUCUAUCUGCUUGCUGUGACCAGCGUGUGCACACAAACCUUAACAAGACUGCAAAUACUCCAGAAGGAAGUCAUUUAGUUAUGAACGAAAUAA,0.887
GAAGGGCAGUAGAGGCGCAAGCUGGGUCCUGCUGGCCGGGGUAGCUCAGCUGUGACUUUGGACUCUGGAGUGGAUGUCCUCAUGUUAGCAAACGUCCACUGUCCUUUCUC,0.287
UCUGGAGCAGCUGUGGCUUCCCCGUGGCUGCUUGGUGACAUGGAUUAGCGCUACGUGGGCUGCAGCAUUUGGGAUCCAGGCUACCUAGAGGGGCAUCGGGCCAGGGAAAA,1.12
UAUUGUGUUUUCCAUCCCUCACCCUCAACAGGAUUAAAAUAAAACAUGCUGGGUUUUUUUGUUUUGUUUUGUUUUGUUUUUAAAUUCUUUUAAUUGGAGAGUUUAUUCUG,1.53
GCUGGCCAUGAUAUUGCCCCAAAUCCGCCCCACUGAAGUGUUCCCUAAGGAACAGCAUUUCUCUGCUCCUCAGUCAACCCCCGUAGCCUAGAGCAGUGUCACAAGCUUCA,0.307
UGGGACAGACCUCAGAGAUUGUGAAUGCAGUGCCAAGCUCACAGGCUGCAAGGGCCAGGCCAGAAAAGGGCGGGCCUGCAGCCUGCACCCCCCACCUUCCCCAACCCUUC,0.307
UGCCUGCAUGGGAAGAGGUGGACAUCUGCAUCUUCCAUUGGUGGUCAAGGAUGGGUGUGGGAGAACCACACCUAGUGCAAGCCUGGUACUCAGUAAAUAUUUGUUGAAAU,6.37

# Sample 2 — technique: RNAcompete; form: RNA; matrix: in vitro; concentration: 20 nM; notes: 7-mer, probes averaged, single round; relative to: mean of 7-mers; reading: higher = stronger binding
# Target: PABPC1L2, full length, GST fusion (mouse, UniProt A0ABA7IW68)
# Target sequence (chain): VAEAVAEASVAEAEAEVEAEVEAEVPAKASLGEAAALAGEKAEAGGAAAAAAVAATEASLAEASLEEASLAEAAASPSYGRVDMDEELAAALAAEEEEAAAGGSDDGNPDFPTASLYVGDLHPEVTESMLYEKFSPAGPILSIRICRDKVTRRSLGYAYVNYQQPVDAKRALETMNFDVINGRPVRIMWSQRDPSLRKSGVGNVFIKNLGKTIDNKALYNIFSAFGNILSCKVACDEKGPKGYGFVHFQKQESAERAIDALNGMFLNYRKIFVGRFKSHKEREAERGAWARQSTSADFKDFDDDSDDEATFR
Sequence,7-mer Z-score
UGACUAC,-0.0935
GUUAUUU,-0.199
ACCGACA,0.0696
GCAGAGG,0.124
GACAUGC,-0.0554
GUAAUGU,-0.15
CGACAAU,0.0895
CAUGGCA,0.0569
UCAAGGC,-0.164
CAUGACU,-0.135
UCGUAAG,-0.32
GUUGACA,-0.00833
AUAGUAG,-0.166
UCUACCC,-0.365
ACCAGCG,-0.0554
UAUAUGU,-0.153
GCAGAUG,0.00254
UUGAUAC,-0.262

# Sample 3 — technique: aptamer microarray, sandwich; form: DNA with 2'F-ANA; matrix: in vitro; concentration: 200 nM; together with: Cy3 exosite-II aptamer, 400 nM; reading: higher = stronger binding; sequence: GGTTGGTGTGGTTGG
# Target: Prothrombin, mature alpha-thrombin (F2, Homo sapiens, UniProt P00734)
# Notes: whole 15-mer aptamer, many near background
Modification,mean fluorescence intensity
2'F-ANA at 2 3 4 8 9 14 15,289 a.u.
2'F-ANA at 2 3 4 5 6 7 10 11 12 14,61.2 a.u.
2'F-ANA at 1 3 5 9 10 12 14,49.8 a.u.
2'F-ANA at 9 10 13 15,170 a.u.
2'F-ANA at 2 6 7 9 10 11 12 13 15,106 a.u.
2'F-ANA at 1 2 3 5 7 12 13,96.4 a.u.
2'F-ANA at 2 3 4 7 8 11 12 15,759 a.u.
2'F-ANA at 1 2 3 4 8 9 10 11 12,68.6 a.u.
2'F-ANA at 2 3 4 5 6 9 10 11 12,57.4 a.u.
2'F-ANA at 2 3 4 6 8 10 11 12 13 14,136 a.u.
2'F-ANA at 1 3 4 5 6 9 14,54.5 a.u.
2'F-ANA at 2 5 7 8 10 13 14 15,47.3 a.u.
2'F-ANA at 1 3 5 6 10 11 12 15,49.7 a.u.
2'F-ANA at 4 5 7 14 15,49.3 a.u.
2'F-ANA at 2 3 8 10 14 15,306 a.u.
2'F-ANA at 1 3 7 9 11 12 14,102 a.u.
2'F-ANA at 1 2 7 8 9 11 12 13 14 15,66.4 a.u.
2'F-ANA at 3 4 8 9 10 12 13 15,253 a.u.
2'F-ANA at 1 2 3 5 8 9 10 15,47.1 a.u.
2'F-ANA at 3 5 6 7 9 11 13 15,70.3 a.u.
2'F-ANA at 5 7 8 11 12 13,118 a.u.
2'F-ANA at 1 2 3 4 7 8 10,60.7 a.u.

# Sample 4 — technique: universal PBM; form: double-stranded DNA, one strand shown; matrix: in vitro; concentration: not given; reading: higher = stronger binding
# Target: Sal-like protein 4, full length isoform B (SALL4, Homo sapiens, UniProt Q9UJQ4-2, residues 1-616)
# Notes: 8-mer, flanks averaged, mean of replicates
# Target sequence (chain): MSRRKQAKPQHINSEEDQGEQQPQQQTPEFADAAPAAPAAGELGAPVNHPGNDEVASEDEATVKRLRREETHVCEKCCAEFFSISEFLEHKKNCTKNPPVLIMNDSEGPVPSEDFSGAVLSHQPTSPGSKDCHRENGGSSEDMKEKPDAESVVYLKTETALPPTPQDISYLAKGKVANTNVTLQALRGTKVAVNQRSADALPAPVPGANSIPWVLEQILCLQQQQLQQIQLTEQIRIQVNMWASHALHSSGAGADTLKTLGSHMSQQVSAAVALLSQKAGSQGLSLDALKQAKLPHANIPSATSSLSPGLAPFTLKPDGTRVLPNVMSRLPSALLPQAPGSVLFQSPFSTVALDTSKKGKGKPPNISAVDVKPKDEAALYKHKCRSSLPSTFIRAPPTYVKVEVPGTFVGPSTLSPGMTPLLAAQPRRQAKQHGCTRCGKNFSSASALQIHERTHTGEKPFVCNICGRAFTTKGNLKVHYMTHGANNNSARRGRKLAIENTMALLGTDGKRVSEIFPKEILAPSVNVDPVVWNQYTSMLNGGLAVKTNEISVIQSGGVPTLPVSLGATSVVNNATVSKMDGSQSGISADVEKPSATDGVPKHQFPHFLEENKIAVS
Sequence,E-score
CATTCACA,0.121
ACACTCCT,-0.00514
GCTCCCTA,-0.0909
TAGGAGGA,-0.0657
AAACGTCC,0.0326
CACAAAGA,0.0643
ATGATTGA,0.216
ACTCTATC,0.0204
CCAGTTTC,-0.251
CGACTTAG,-0.0782
CTGTCTTC,-0.112
ATCGTTCC,-0.122
CAACCACA,0.101
ACTAATGA,0.245
AGTGCCTA,0.00561
ACCGCAAT,-0.113
ACCGAGTA,-0.116
GCCGCTCC,-0.291
CAACTAGA,0.115
ACCCTTGG,-0.222

# Sample 5 — technique: protein-binding microarray; form: double-stranded DNA, one strand shown; matrix: in vitro; concentration: 2540 nM top; notes: 60-bp whole probe; together with: salmon DNA 0.4 mg/ml; relative to: random background probes; reading: higher = stronger binding; constant ends, left off below: GCCTAGCAC … GTCTTGATTCGCTTGACGCTGCTG
# Target: Interferon regulatory factor 3, full length, phosphomimetic (IRF3, Homo sapiens, UniProt Q14653, residues 1-427, S386D/S396D/S398D/S402D/T404D/S405D)
# Target sequence (chain): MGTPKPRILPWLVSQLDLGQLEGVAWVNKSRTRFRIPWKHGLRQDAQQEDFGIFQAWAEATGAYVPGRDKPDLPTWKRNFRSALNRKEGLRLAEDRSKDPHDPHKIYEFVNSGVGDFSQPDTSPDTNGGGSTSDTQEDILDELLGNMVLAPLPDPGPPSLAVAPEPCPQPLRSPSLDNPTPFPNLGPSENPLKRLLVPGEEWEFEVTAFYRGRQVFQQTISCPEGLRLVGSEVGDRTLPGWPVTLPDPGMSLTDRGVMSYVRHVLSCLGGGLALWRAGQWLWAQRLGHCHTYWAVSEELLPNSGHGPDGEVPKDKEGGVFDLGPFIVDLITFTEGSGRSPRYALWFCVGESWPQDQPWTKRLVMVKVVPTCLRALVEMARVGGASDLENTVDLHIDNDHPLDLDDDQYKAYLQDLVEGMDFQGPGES
Sequence,fitted relative affinity
GACGAACAGAGTATCGAGACGTGCTAG,-0.0705 z-score
GACGATGTCAGACTGGAGACGTGCTAG,-0.298 z-score
TCATTTTTGCTTTCCTTACTGTGCTAG,4.81 z-score
TCAGGTTTTTTTTTAATACTGTGCTAG,0.864 z-score
GACGGTCACCTTCTCCTGACGTGCTAG,2 z-score
TCAACAATTTCAGATTCCACTGTGCTA,1.69 z-score
TTTGGACTGCTTATCCTTTAGTGCTAG,-0.0032 z-score
TAAGATATCAGTCTCGATTAGTGCTAG,1.36 z-score
TTAGGTTTGGACACTGGGTTAGTGCTA,-0.533 z-score
TCAACTTCTCTTTTGGCACTGTGCTAG,0.957 z-score
AACTAAAGAGACCACAAAAAGTGCTAG,0.172 z-score
TTAGGACTGAGGTATCGGTTAGTGCTA,0.602 z-score
TTAGAACTGAGTCTCGATTCGTGCTAG,-0.325 z-score
TTATGTCTCGGTATCGGTTAGTGCTAG,2.57 z-score
CACAGAACATATTAGTATATGTGCTAG,0.567 z-score
TTAGAACTGGGGACTCGATTAGTGCTA,-0.774 z-score
GACGAACTAGGGTTTCGAGACGTGCTA,0.46 z-score
TGATCTTCCTTCATGGCCTGGTGCTAG,0.51 z-score
CACGGTCTCCTTATCCTGACGTGCTAG,2.42 z-score
ATATATATCCATTATAGATGGTGCTAG,1.62 z-score
CACGGTTTCGACACTGGGGACGTGCTA,2.57 z-score
TTAGGTTTCGGTTCCTGTTAGTGCTAG,9.67 z-score
GACGGTATCGGTTTCGGGCCGTGCTAG,6.57 z-score
TTGGGTTTCGACTATCGGTTAGTGCTA,1.43 z-score
TTAGGACTGGGAATGGGTTAGTGCTAG,-0.601 z-score

# Repeated from above (sample 5):
Sequence,fitted relative affinity
AACTAAAGAGACCACAAAAAGTGCTAG,0.172 z-score
GACGGTATCGGTTTCGGGCCGTGCTAG,6.57 z-score
CACGGTTTCGACACTGGGGACGTGCTA,2.57 z-score
TTAGGACTGAGGTATCGGTTAGTGCTA,0.602 z-score
TCAACAATTTCAGATTCCACTGTGCTA,1.69 z-score
GACGAACAGAGTATCGAGACGTGCTAG,-0.0705 z-score
CACGGTCTCCTTATCCTGACGTGCTAG,2.42 z-score
TAAGATATCAGTCTCGATTAGTGCTAG,1.36 z-score
GACGGTCACCTTCTCCTGACGTGCTAG,2 z-score
TCAACTTCTCTTTTGGCACTGTGCTAG,0.957 z-score
